Experimental data pooled from the literature.
Each numbered part is a random draw from the data of one study; scales do not carry over between parts.

Block 1
Target: Interferon regulatory factor 3, full length, phosphomimetic (IRF3, Homo sapiens, UniProt Q14653, residues 1-427, S386D/S396D/S398D/S402D/T404D/S405D)
UniProt Q14653, sequence (whole entry, unmodified, looked up): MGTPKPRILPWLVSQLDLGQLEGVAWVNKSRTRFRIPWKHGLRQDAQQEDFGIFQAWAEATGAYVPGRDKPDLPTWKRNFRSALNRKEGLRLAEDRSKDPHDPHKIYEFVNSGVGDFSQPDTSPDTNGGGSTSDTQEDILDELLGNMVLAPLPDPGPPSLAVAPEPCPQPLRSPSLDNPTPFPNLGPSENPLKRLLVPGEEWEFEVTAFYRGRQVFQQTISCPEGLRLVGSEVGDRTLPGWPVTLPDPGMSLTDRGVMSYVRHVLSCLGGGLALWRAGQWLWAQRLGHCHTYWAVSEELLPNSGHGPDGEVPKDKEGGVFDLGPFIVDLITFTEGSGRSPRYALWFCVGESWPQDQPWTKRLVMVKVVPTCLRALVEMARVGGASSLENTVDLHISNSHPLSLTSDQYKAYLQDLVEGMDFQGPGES
Technique: protein-binding microarray
Molecule type: double-stranded DNA, one strand shown
Medium: in vitro
Concentration: 2540 nM top
Notes: 60-bp whole probe
Together with: salmon DNA 0.4 mg/ml
Reference: random background probes
Reading: higher = stronger binding
Measurement: fitted relative affinity
Constant ends, left off below: GCCTAGCAC … GTCTTGATTCGCTTGACGCTGCTG
Sequence = GACGGTATCGGAGTGGGGACGTGCTAG; value = 1.87 z-score
Sequence = TCACATTTCACAGTTAAACTGTGCTAG; value = 1.7 z-score
Sequence = GACGGAGTGGGGTTTCGGGACGTGCTA; value = 0.658 z-score
Sequence = TTAGGTCTGGACACTGGGTTAGTGCTA; value = -0.779 z-score
Sequence = TTAGGTCTCCGTATCGGTTAGTGCTAG; value = 2.69 z-score
Sequence = GACGGGTTCGGGTATCGGGACGTGCTA; value = 0.279 z-score
Sequence = CTGTGTGTCAGGTTTACTAGGGTGCTA; value = 0.991 z-score
Sequence = GACGGACTGGGTGTCGGGACGTGCTAG; value = -0.335 z-score
Sequence = TTAGATTTCGGGTTTCGATTGGTGCTA; value = 2.65 z-score
Sequence = GTGTATATGACAATGATGTTGTGCTAG; value = -0.21 z-score
Sequence = GACGGTTTCGGTTTCGAGACGTGCTAG; value = 9.98 z-score

Block 2
Target: TAR DNA-binding protein 43, full length, His tag (TARDBP, Homo sapiens, UniProt Q13148, residues 1-414)
Technique: RNA Bind-n-Seq
Molecule type: RNA
Medium: in vitro
Concentration: 20 nM
Notes: 6-mer, flanks averaged, single round
Together with: 150 mM KCl
Reference: input library
Reading: higher = stronger binding
Measurement: 6-mer enrichment (R)
Sequence = AAGGCU; value = 0.749
Sequence = UCGUGC; value = 0.75
Sequence = CGAGAG; value = 1.5
Sequence = GAGAGU; value = 1.45
Sequence = CUUACU; value = 0.561
Sequence = CGCGUU; value = 0.719
Sequence = CCAUUA; value = 0.586

Block 3
Target: Sal-like protein 4, full length isoform B (SALL4, Homo sapiens, UniProt Q9UJQ4-2, residues 1-616)
Technique: universal PBM
Molecule type: double-stranded DNA, one strand shown
Medium: in vitro
Concentration: not given
Notes: 8-mer, flanks averaged, mean of replicates
Reading: higher = stronger binding
Measurement: E-score
Construct (chain): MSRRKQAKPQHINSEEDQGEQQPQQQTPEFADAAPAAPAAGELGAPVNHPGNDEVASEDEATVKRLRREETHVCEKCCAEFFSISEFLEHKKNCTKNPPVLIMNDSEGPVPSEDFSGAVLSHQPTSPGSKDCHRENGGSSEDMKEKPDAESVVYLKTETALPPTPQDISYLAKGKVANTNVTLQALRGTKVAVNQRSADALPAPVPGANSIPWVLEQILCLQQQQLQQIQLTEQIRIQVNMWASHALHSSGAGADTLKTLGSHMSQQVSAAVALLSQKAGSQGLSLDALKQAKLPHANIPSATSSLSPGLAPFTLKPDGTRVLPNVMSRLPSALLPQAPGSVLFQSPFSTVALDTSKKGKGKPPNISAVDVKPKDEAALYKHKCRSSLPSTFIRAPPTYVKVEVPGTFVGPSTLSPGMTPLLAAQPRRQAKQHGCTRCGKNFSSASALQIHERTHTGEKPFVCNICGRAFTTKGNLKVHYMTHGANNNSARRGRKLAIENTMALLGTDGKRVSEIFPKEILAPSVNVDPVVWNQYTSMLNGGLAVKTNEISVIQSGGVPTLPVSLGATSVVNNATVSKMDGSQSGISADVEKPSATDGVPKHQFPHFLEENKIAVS
Sequence = GTTGACCA; value = -0.171
Sequence = GAAGACTA; value = 0.0323
Sequence = ATAAAGAC; value = 0.233
Sequence = AGACCTCT; value = -0.114
Sequence = TATAGGAA; value = 0.285
Sequence = AGTGCACA; value = -0.132
Sequence = ACGCAGGG; value = -0.129
Sequence = TCACGACA; value = 0.056
Sequence = GAAAGAGA; value = -0.057

Further values, each from its own experiment
Molecule = PhoQ, residues 284 288 289 292 302 303 SMMNNA; target = PhoP, residues 12 14 15 18 19 GQALL (Escherichia coli, UniProt P23836); test = Sort-seq, refers to: YFP reporter; system = E. coli; setting = PhoQ-PhoP variant library, together with: 10 µM Mg2+; how to read = reference: high Mg2+ state, higher = stronger signaling; measurement = fold induction; value = 12.4

For quick reference, copied from above (block 1):
Sequence = GACGGACTGGGTGTCGGGACGTGCTAG; value = -0.335 z-score
Sequence = TTAGATTTCGGGTTTCGATTGGTGCTA; value = 2.65 z-score
Sequence = GTGTATATGACAATGATGTTGTGCTAG; value = -0.21 z-score
